Assay results from different studies.
Each numbered part is a random draw from the data of one study; scales do not carry over between parts. Values joined by “and” are separate records of one study, mostly repeats; a detail may differ.
UniProt P53778, sequence (whole entry, looked up): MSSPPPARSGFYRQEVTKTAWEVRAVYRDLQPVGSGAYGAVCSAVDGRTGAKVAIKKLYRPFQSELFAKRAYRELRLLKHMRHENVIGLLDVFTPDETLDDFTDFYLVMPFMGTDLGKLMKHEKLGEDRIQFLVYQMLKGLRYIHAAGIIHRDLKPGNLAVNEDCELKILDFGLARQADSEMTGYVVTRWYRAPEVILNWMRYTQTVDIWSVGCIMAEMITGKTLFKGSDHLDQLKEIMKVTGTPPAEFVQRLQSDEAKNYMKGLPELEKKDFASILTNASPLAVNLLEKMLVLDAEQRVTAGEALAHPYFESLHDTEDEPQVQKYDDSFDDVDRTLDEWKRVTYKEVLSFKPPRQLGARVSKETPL
UniProt O60331, sequence (whole entry, looked up): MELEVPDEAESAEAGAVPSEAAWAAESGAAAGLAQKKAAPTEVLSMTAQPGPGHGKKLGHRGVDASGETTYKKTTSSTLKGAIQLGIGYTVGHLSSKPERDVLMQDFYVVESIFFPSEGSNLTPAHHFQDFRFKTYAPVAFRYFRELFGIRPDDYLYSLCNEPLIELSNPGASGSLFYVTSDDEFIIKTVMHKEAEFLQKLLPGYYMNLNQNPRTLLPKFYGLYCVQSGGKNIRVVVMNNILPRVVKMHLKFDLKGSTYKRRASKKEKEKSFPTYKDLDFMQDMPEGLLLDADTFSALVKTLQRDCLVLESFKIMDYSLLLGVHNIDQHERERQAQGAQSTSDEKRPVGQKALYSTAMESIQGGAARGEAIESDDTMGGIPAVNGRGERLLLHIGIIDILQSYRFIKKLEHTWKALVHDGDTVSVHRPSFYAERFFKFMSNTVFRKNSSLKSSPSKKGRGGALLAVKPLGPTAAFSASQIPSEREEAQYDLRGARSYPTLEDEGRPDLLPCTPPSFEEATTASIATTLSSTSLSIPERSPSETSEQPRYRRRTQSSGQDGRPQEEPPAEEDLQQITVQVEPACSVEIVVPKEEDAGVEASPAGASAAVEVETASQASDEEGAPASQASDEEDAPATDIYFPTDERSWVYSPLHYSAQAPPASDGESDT
UniProt P57078, sequence (whole entry, looked up): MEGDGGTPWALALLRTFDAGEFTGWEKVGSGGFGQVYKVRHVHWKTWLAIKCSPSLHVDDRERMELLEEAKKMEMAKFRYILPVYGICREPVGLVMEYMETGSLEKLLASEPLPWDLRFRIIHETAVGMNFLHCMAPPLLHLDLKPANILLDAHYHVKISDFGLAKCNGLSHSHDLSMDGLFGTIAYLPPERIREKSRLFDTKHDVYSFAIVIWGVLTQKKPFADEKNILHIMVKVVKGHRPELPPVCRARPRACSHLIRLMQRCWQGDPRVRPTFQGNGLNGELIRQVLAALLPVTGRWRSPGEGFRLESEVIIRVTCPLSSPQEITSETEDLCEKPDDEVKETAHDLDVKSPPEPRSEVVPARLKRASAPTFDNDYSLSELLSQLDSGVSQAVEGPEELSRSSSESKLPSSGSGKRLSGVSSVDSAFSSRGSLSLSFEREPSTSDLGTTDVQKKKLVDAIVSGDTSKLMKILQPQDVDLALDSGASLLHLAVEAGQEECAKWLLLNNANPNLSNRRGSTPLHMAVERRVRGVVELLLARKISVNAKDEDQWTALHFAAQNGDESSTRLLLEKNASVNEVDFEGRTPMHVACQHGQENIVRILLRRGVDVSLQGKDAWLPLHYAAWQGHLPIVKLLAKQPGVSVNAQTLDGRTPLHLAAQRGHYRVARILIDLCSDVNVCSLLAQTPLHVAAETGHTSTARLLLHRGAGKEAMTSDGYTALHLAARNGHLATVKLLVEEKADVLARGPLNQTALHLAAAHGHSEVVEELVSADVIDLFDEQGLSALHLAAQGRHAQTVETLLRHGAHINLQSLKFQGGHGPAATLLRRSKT
UniProt Q00535, sequence (whole entry, looked up): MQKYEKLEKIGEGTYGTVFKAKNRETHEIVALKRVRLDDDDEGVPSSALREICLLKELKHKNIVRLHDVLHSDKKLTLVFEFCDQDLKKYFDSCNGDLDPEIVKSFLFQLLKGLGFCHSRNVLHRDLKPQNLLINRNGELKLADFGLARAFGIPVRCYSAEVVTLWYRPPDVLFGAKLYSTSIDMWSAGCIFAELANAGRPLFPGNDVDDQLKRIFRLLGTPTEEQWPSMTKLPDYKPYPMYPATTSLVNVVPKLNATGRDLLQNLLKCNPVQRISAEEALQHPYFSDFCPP
UniProt P68400, sequence (whole entry, looked up): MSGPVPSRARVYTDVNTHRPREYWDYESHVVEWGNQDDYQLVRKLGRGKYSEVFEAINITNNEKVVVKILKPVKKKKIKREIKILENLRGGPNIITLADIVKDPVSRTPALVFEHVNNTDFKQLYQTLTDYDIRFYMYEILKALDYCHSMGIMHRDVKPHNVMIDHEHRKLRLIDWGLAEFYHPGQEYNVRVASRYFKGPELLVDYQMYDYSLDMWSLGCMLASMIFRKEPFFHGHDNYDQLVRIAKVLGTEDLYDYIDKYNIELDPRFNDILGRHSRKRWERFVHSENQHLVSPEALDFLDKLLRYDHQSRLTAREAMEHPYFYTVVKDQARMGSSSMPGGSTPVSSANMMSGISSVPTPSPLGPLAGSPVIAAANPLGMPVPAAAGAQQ
UniProt O95835, sequence (whole entry, looked up): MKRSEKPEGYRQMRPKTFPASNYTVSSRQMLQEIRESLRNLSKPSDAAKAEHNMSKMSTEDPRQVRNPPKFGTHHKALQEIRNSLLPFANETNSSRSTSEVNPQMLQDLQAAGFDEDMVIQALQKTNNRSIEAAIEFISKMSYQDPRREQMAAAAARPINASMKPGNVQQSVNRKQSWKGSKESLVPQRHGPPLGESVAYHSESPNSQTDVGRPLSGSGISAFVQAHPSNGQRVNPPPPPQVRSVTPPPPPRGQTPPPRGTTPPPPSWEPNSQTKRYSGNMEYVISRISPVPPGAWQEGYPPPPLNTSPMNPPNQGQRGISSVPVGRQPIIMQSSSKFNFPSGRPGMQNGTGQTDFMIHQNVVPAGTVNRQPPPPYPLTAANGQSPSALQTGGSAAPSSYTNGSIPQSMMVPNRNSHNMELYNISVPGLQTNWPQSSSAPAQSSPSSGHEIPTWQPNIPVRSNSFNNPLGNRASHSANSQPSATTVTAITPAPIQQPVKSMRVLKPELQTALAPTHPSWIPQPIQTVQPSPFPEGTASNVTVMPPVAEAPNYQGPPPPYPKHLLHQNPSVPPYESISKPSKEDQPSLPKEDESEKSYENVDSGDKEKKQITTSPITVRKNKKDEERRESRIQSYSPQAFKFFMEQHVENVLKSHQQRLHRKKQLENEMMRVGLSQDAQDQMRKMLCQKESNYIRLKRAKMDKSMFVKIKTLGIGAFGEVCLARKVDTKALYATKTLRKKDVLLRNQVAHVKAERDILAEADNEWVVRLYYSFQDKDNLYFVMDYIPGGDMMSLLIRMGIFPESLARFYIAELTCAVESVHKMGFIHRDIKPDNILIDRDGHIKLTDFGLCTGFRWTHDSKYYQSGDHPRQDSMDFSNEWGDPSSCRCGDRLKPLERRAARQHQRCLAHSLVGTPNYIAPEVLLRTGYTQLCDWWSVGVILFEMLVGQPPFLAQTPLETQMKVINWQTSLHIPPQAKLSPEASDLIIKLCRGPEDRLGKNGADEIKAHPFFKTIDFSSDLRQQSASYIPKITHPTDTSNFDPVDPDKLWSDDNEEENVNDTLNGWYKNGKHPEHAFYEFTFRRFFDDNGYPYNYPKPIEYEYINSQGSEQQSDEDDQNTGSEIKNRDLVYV
UniProt O75460, sequence (whole entry, looked up): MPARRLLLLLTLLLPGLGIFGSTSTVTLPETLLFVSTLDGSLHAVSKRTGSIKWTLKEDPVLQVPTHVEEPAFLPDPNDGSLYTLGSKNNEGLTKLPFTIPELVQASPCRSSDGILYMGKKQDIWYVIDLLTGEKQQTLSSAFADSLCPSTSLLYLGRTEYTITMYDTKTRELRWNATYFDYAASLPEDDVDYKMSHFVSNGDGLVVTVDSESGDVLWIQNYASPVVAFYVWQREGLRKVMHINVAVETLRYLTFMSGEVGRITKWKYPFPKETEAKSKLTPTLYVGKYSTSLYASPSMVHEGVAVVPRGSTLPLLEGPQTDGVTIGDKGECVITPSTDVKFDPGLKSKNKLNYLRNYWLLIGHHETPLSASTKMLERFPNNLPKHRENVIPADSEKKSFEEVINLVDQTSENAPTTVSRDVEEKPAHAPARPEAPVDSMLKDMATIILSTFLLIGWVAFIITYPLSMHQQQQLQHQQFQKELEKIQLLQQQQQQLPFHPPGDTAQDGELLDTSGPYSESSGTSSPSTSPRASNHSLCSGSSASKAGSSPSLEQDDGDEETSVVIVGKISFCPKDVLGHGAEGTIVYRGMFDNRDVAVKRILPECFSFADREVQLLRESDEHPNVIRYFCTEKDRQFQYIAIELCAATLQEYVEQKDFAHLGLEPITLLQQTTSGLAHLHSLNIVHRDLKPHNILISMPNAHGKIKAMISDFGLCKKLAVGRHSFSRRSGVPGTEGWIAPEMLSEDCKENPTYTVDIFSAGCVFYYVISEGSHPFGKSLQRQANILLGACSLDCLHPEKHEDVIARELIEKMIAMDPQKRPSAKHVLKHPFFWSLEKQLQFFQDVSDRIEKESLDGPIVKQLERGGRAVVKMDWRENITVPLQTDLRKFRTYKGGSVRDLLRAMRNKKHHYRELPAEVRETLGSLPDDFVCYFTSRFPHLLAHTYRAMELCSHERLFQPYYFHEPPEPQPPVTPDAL
UniProt Q8N752, sequence (whole entry, looked up): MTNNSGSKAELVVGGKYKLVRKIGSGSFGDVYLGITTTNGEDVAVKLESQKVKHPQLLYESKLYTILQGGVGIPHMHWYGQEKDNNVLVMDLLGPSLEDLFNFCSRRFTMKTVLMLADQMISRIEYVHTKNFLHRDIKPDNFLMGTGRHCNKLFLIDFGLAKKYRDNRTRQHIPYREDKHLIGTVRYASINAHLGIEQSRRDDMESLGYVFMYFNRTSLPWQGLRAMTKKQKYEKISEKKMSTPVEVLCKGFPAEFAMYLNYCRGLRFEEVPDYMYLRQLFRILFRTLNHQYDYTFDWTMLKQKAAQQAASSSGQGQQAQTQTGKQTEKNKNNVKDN

Sample 1 — target: His6 tag; method: AlphaScreen counter screen; concentration: concentration not given
Compound | inhibition [%]
O=C(O)c1ccc(-c2c[nH]c3ncc(-c4ccccc4)cc23)cc1C1CCCC1 | 10.1
CCC(C)(C)C1CCc2sc3nc[nH]c(=O)c3c2C1 (stereo not shown) | 15.6
CC(C)OC(=O)CNC(=O)c1cc2c(=O)n3ccccc3nc2n1C | 6.2
CN1CCN(Cc2c(-c3ccco3)[nH]c3ncccc23)CC1 | 3.65

Sample 2 — concentration: 1 µM
SMILES: CN1CCN(C(=O)c2ccc(NC(=O)Nc3ccc(N(C)c4ccnc(Nc5ccc(CS(C)(=O)=O)cc5)n4)cc3)cc2)CC1
target | assay | setting | scale | remaining binding
Serine/threonine-protein kinase Sgk3 (SGK3, Homo sapiens, UniProt Q96BR1) | competitive binding panel | – | reference: vehicle | 79%
Macrophage colony-stimulating factor 1 receptor (CSF1R, Homo sapiens, UniProt P07333) | competitive binding scan | autoinhibited form | – | 8.8%
Transient receptor potential cation channel subfamily M member 6 (TRPM6, Homo sapiens, UniProt Q9BX84) | competitive binding panel | – | reference: vehicle | 91%

Sample 3 — cell line: Huh-7; concentration: 10 µM; time: 24 h
Compound | viability [%]
NS(=O)(=O)c1cc2c(cc1Cl)NC(C1CC3C=CC1C3)NS2(=O)=O (stereo not shown) | 102
COCCCOc1ccnc(C[S+]([O-])c2nc3ccccc3[nH]2)c1C (stereo not shown) | 96.4
CCC(=O)O[C@]1(C(=O)CCl)[C@@H](C)C[C@H]2[C@@H]3CCC4=CC(=O)C=C[C@]4(C)[C@@]3(F)[C@@H](O)C[C@@]21C | 97.9
O=C1CN2Cc3c(ccc(Cl)c3Cl)N=C2N1 | 73.3

Sample 4 — observed: cell-free assay; method: competition with immobilised ligand; concentration: 1 µM
Structure (SMILES): O=C(NCc1ncc(C(F)(F)F)cc1Cl)c1ccc2c(c1)C1(CCS(=O)(=O)CC1)[C@H](C1CC1)N2S(=O)(=O)c1ccc(F)cc1
target | remaining binding
Casein kinase II subunit alpha (CSNK2A1, Homo sapiens, UniProt P68400) | 66%
Casein kinase I isoform alpha-like (CSNK1A1L, Homo sapiens, UniProt Q8N752) | 95%
Serine/threonine-protein kinase LATS1 (LATS1, Homo sapiens, UniProt O95835) | 91%
Phosphatidylinositol 4-phosphate 5-kinase type-1 gamma (PIP5K1C, Homo sapiens, UniProt O60331) | 100%
Ephrin type-B receptor 3 (EPHB3, Homo sapiens, UniProt P54753) | 100%
Serine/threonine-protein kinase/endoribonuclease IRE1 (ERN1, Homo sapiens, UniProt O75460) | 78%
Cyclin-dependent kinase 5 (CDK5, Homo sapiens, UniProt Q00535) | 0%
Muscle, skeletal receptor tyrosine-protein kinase (MUSK, Homo sapiens, UniProt O15146) | 100%
Cyclin-dependent kinase 15 (CDK15, Homo sapiens, UniProt Q96Q40) | 100%
Receptor-interacting serine/threonine-protein kinase 4 (RIPK4, Homo sapiens, UniProt P57078) | 93%
Rho-associated protein kinase 1 (ROCK1, Homo sapiens, UniProt Q13464) | 94%
Serine/threonine-protein kinase MAK (MAK, Homo sapiens, UniProt P20794) | 100%
Mitogen-activated protein kinase 12 (MAPK12, Homo sapiens, UniProt P53778) | 100%

Sample 5 — cell line: mouse MPNST tumor cells; method: high-content nuclear imaging; measured: cell number; concentration: 10 µM; time: 12 h; setting: mean of 2 replicates; reference: plate mean; direction: higher = more cells
Compound | nuclei count
Cc1c(OCC(F)(F)F)ccnc1C[S+]([O-])c1nc2ccccc2[nH]1 (stereo not shown) | 0.633 z-score and 0.817 z-score
NC[C@@H]1O[C@H](O[C@H]2[C@@H](O)[C@H](O[C@@H]3[C@@H](O)[C@H](N)C[C@H](N)[C@H]3O[C@H]3O[C@H](CN)[C@@H](O)[C@H](O)[C@H]3N)O[C@@H]2CO)[C@H](N)[C@@H](O)[C@@H]1O | 0.284 z-score
C[N+](C)(CCOc1ccccc1)Cc1ccccc1.O=C([O-])c1cc2ccccc2cc1O | 0.045 z-score
COC[C@H](C)Oc1cc(O[C@@H](C)Cc2ccccc2)cc(C(=O)Nc2ccc(C(=O)O)cn2)c1 | 0.31 z-score

Some of these lines once more (sample 4):
target | remaining binding
Casein kinase II subunit alpha (CSNK2A1, Homo sapiens, UniProt P68400) | 66%
Casein kinase I isoform alpha-like (CSNK1A1L, Homo sapiens, UniProt Q8N752) | 95%
Serine/threonine-protein kinase LATS1 (LATS1, Homo sapiens, UniProt O95835) | 91%
Phosphatidylinositol 4-phosphate 5-kinase type-1 gamma (PIP5K1C, Homo sapiens, UniProt O60331) | 100%
